Assay results collected from several papers.
Several values in a cell are separate wells, animals, samples, runs or records. ± marks the error that the study gave.

CC(=O)N[C@@H](CCC(=O)O)C(=O)N[C@@H](CCC(N)=O)C(=O)N[C@@H](CCC(N)=O)C(=O)N[C@@H](CC(C)C)C(=O)N[C@@H](CCCCN)C(=O)N[C@@H](Cc1ccc(O)cc1)C(=O)N[C@@H](Cc1ccccc1)C(=O)N[C@@H](CC(C)C)C(=O)N[C@@H](CCC(=O)O)C(=O)N[C@@H](CCCNC(=N)N)C(=O)N[C@@H](Cc1ccccc1)C(=O)N[C@@H](C)C(=O)N[C@@H](CCC(=O)O)C(=O)N[C@@H](CCC(N)=O)C(=O)N[C@@H](CC(C)C)C(=O)N[C@@H](CCC(=O)O)C(=O)N[C@@H](CCC(N)=O)C(=O)N[C@@H](CC(C)C)C(=O)N[C@@H](Cc1ccccc1)C(=O)N[C@@H](Cc1ccc(O)cc1)C(=O)N[C@@H](CCC(N)=O)C(=O)N[C@@H](CO)C(=O)N[C@@H](CO)C(N)=O  cytotoxicity (A549; 500 µM): not toxic
COc1ccc([C@@]23Oc4cc(OC)cc(OC)c4[C@@]24NC(C)=N[C@@]4(O)[C@H](C(=O)N(C)OC)[C@H]3c2ccccc2)cc1  viability (A549; concentration not given): 50%
Cc1ccc2[nH]c3c(c2c1)CCCC3NCCc1ccc(F)cc1 (centres unmarked)  non-viable cells (A549; 50 µM, 23 h): 13.8 ± 14.9%
COc1ccccc1OCCNCC(O)COc1cccc2[nH]c3ccccc3c12 (centres unmarked)  CC50 (A549; MTT; 72 h): 17.8 µM
CC(C)C[C@H](NC(=O)[C@H](C)NC(=O)[C@@H](NC(=O)[C@H](CCCNC(=N)N)NC(=O)[C@H](CC(C)C)NC(=O)[C@H](Cc1c[nH]c2ccccc12)NC(=O)[C@@H]1CCCN1C(=O)[C@@H](N)CCCCN)C(C)C)C(=O)N[C@@H](CS)C(=O)N1CCC[C@H]1C(=O)NCC(=O)O  viability (A549; WST-1; 4 µM, 24 h): 90.3% and 91.1% and 85.6%
COc1cccc2c1C(=O)c1c(O)c3c(c(O)c1C2=O)C[C@@](O)(C(=O)CO)C[C@@H]3O[C@H]1C[C@H](N)[C@@H](O)[C@H](C)O1  maximum inhibition (human coronavirus OC43; virus-induced cell killing; MRC-5; maximum over 10 doses): 0%
c1ccc(CCNC2CCCc3c2[nH]c2ccccc32)cc1 (centres unmarked)  non-viable cells (A549; 50 µM, 23 h): 13 ± 14.8%
CCCCCCCCCC(=O)N[C@@H](Cc1c[nH]c2ccccc12)C(=O)N[C@H](CC(N)=O)C(=O)N[C@@H](CC(=O)O)C(=O)N[C@@H]1C(=O)NCC(=O)N[C@@H](CCCNC(=O)CCC(=O)N2Cc3ccccc3-c3c(nnn3CCC[C@H](NC(=O)CCCCC[N+]3=C(C=CC4=CC(=CC=C5N(C)c6ccccc6C5(C)C)CCC4)C(C)(C)c4ccccc43)C(=O)NCCCCNC(=O)CCC(=O)N3Cc4ccccc4-c4c(nnn4CCOCCOCCOCCNC(=O)CN4CCN(CC(=O)NCCNC(=O)c5cccc(O)c5O)CCN(CC(=O)NCCNC(=O)c5cccc(O)c5O)CCN(CC(=O)NCCNC(=O)c5cccc(O)c5O)CC4)-c4ccccc43)-c3ccccc32)C(=O)N[C@@H](CC(=O)O)C(=O)N[C@H](C)C(=O)N[C@@H](CC(=O)O)C(=O)NCC(=O)N[C@H](CO)C(=O)N[C@@H]([C@H](C)CC(=O)O)C(=O)N[C@@H](CC(=O)c2ccccc2N)C(=O)O[C@@H]1C  EC50 (A549; cytotoxicity, WST-1; human cells; 5 days, 5% FBS DMEM): 64 µM
CC(C)NCC(O)COc1cccc2ccccc12 (centres unmarked)  CC50 (A549; MTT; 72 h): 73.3 µM
Cc1ccc([C@@H]2O[C@H](CO)[C@@H](O)[C@H](O)[C@H]2O)cc1Cc1ccc(-c2ccc(F)cc2)s1  maximum inhibition (human coronavirus OC43; virus-induced cell killing; MRC-5; screen): 15.8%
Cc1ccc2[nH]c3c(c2c1)CCC/C3=N\CCC/N=C1\CCCc2c1[nH]c1ccc(C)cc21  non-viable cells (A549; 50 µM, 23 h): 19.3 ± 10.1%

For quick reference, copied from above:
Cc1ccc2[nH]c3c(c2c1)CCCC3NCCc1ccc(F)cc1 (centres unmarked)  non-viable cells (A549; 50 µM, 23 h): 13.8 ± 14.9%
COc1ccccc1OCCNCC(O)COc1cccc2[nH]c3ccccc3c12 (centres unmarked)  CC50 (A549; MTT; 72 h): 17.8 µM
